Measurements gathered from unrelated publications.
A part holds a random share of what one study measured. Positions count from the first letter of the parent shown.

Block 1
Target: Interferon regulatory factor 5, full length, phosphomimetic (IRF5, Homo sapiens, UniProt Q13568-2, residues 1-514, K96S/S451D/S453D/S456D/S462D)
Method: protein-binding microarray
Form: double-stranded DNA, one strand shown
Sample: in vitro
Tested at: 250 nM
Notes: 60-bp whole probe
Added: salmon DNA 0.4 mg/ml
Relative to: random background probes
Reading: higher = stronger binding
All sequences stand within: GCCTAGCAC … GTCTTGATTCGCTTGACGCTGCTG
Sequence	log fluorescence [z-score]
GACGGTATCGGGTTTAGGGACGTGCTA	2.18
TGGATGGTCCTGGTTTCATGGGTGCTA	0.236
GACGGTATCCTTTTCCTGGCGTGCTAG	0.253
TCAGATTTCCTTCACCCACTGTGCTAG	0.822
TTAGGTTTCCTAATGCTTTAGTGCTAG	0.737

Block 2
Target: CCNA1, cyclin fold, Cln2 fusion (human)
Method: yeast growth competition, sequencing
Sample: yeast
Notes: weak parent motif
Relative to: not given
Reading: higher = stronger binding
Starting sequence: CDC6 docking peptide (human); TLKGRRLVFDNQL; partner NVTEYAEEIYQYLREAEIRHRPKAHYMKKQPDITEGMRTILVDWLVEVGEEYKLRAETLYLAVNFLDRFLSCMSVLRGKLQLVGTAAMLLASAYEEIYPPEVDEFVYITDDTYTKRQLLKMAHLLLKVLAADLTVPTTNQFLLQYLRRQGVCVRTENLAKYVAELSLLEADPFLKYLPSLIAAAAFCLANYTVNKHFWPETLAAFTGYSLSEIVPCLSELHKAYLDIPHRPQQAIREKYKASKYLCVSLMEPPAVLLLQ
Substitution	normalised enrichment score
N11A	0.434
T1M	0.172
R6Q	0.175
R6Y	0.505

Block 3
Target: Histone acetyltransferase KAT6A, both winged helices, GST fusion (KAT6A, Homo sapiens, UniProt Q92794, residues 1-181)
Method: protein binding microarray
Form: double-stranded DNA, one strand shown
Sample: in vitro
Tested at: not given
Notes: 8-mer, flanks averaged, mean of 2 arrays, mostly near background
Relative to: not given
Reading: higher = stronger binding
Target sequence (chain): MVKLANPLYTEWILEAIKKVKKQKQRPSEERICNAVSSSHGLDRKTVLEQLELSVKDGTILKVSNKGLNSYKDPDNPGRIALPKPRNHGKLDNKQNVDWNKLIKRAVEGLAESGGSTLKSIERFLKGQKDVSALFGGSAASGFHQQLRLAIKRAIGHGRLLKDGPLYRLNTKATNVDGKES
Sequence	E-score
TCCAAAAA	-0.171
AAACCAGC	-0.00507
CTCCTAAG	-0.153
CTCGCAGA	-0.0268
CGTCCGGA	0.229

Mixed results
Substance	target	assay	system	setting	how to read	quantity	result
PhoQ, residues 284 288 289 292 302 303 AGGCYF	PhoP, residues 12 14 15 18 19 FWNTL (Escherichia coli, UniProt P23836)	Sort-seq, item: YFP reporter	E. coli	PhoQ-PhoP variant library, added: 10 µM Mg2+	relative to: high Mg2+ state, higher = stronger signaling	fold induction	0.703

For quick reference, copied from above (block 1):
Sequence	log fluorescence [z-score]
TCAGATTTCCTTCACCCACTGTGCTAG	0.822
GACGGTATCCTTTTCCTGGCGTGCTAG	0.253
